Results from different studies.
Protocols differ between the studies behind these lines.

| SMILES | assay | system | conditions | measurement | value |
| --- | --- | --- | --- | --- | --- |
| CC(=O)c1c(C)c2cnc(Nc3ccc(C4CCN(CCS(C)(=O)=O)CC4)cn3)nc2n(C2CCCC2)c1=O | – | HR+/HER2- advanced breast cancer patients | oral, 50 mg | patients with TRAE grade ≥3 | 33.3% |
| C=CCNc1c(O)cc2c(O)c1C[C@@H](C)C[C@H](OC)[C@H](O)[C@@H](C)/C=C(\C)[C@H](OC(N)=O)[C@@H](OC)/C=C\C=C(/C)C(=O)N2 | – | unresectable or metastatic sarcoma | intravenous, 500 mg/m^2, grade 3-4 lab change | patients with ALT increase | 0% |
| N[C@@H]1c2ccccc2OC12CCN(c1cnc3c(N4CCCc5ncccc54)n[nH]c3n1)CC2 | – | advanced solid tumour patients | oral, 50 mg once daily | patients with any TEAE | 100% |
| O=C1Nc2cc3[nH]nc(-c4ccncc4)c3cc2CN1Cc1ccccc1 | CTCAE v4.03 | advanced solid tumour patients | intravenous, 9.6 mg/kg, schedules 1/2 | patients with ≥1 TEAE | 100% |
| C[C@@H]1OC(=O)NN=C1c1ccc(-c2ccc(F)cc2)c(C(F)(F)F)c1 | – | patients, phase I trial | oral, 5 mg once daily, any grade TEAE | patients with platelet count decreased | 100% |
| Nc1nc2cc(-c3ccc4ncc(C(=O)N5CCOCC5)n4c3)ccc2o1 | item: Anemia | advanced solid tumour patients | dose not given, all grades, all doses | patients with adverse event | 21% |
| CN1CC[C@@H](c2c(O)cc(O)c3c(=O)cc(-c4ccc(C(F)(F)F)cc4Cl)oc23)[C@@H]1CO | item: Nausea | AML | oral, 200 mg, intermittent dosing | patients with adverse event | 40% |
| CCN(CCO)CCCC(C)Nc1ccnc2cc(Cl)ccc12 (centres unmarked) | item: Constipation grade 1 | newly diagnosed glioblastoma patients | oral, 200 mg/dose, with radiotherapy and temozolomide | patients with adverse event | 33% |

For quick reference, copied from above:
| SMILES | assay | system | conditions | measurement | value |
| --- | --- | --- | --- | --- | --- |
| Nc1nc2cc(-c3ccc4ncc(C(=O)N5CCOCC5)n4c3)ccc2o1 | item: Anemia | advanced solid tumour patients | dose not given, all grades, all doses | patients with adverse event | 21% |
